# Measurements from different studies.
# A part holds a random share of what one study measured. Substitutions count along the parent as printed.
# Sequence of UniProt P27448 (whole entry, looked up): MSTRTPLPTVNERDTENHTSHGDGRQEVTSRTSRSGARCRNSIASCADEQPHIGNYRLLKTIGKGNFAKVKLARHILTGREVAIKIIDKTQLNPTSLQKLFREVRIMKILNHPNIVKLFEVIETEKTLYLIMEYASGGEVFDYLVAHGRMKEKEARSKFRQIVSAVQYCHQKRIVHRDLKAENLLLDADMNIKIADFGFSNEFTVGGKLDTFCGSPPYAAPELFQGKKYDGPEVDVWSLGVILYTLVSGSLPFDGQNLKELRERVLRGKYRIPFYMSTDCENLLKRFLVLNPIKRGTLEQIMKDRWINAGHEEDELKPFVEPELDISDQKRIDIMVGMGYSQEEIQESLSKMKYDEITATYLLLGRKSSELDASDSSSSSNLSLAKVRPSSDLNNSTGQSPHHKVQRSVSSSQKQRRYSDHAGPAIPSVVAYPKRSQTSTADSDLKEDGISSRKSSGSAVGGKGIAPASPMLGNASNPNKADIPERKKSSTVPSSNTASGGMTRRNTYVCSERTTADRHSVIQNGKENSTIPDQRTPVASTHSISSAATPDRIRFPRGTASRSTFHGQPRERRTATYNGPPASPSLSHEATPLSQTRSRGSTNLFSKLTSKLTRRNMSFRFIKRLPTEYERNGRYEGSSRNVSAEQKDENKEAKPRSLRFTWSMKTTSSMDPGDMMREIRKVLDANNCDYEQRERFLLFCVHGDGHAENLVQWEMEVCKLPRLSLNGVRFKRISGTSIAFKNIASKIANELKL

# Set 1 — method: universal PBM; molecule type: double-stranded DNA, one strand shown; matrix: in vitro; concentration: 600 nM; reading: higher = stronger binding
# Target: Sal-like protein 4, full length isoform A (SALL4, Homo sapiens, UniProt Q9UJQ4, residues 1-1053)
# Sequence of UniProt Q9UJQ4 (whole entry, looked up): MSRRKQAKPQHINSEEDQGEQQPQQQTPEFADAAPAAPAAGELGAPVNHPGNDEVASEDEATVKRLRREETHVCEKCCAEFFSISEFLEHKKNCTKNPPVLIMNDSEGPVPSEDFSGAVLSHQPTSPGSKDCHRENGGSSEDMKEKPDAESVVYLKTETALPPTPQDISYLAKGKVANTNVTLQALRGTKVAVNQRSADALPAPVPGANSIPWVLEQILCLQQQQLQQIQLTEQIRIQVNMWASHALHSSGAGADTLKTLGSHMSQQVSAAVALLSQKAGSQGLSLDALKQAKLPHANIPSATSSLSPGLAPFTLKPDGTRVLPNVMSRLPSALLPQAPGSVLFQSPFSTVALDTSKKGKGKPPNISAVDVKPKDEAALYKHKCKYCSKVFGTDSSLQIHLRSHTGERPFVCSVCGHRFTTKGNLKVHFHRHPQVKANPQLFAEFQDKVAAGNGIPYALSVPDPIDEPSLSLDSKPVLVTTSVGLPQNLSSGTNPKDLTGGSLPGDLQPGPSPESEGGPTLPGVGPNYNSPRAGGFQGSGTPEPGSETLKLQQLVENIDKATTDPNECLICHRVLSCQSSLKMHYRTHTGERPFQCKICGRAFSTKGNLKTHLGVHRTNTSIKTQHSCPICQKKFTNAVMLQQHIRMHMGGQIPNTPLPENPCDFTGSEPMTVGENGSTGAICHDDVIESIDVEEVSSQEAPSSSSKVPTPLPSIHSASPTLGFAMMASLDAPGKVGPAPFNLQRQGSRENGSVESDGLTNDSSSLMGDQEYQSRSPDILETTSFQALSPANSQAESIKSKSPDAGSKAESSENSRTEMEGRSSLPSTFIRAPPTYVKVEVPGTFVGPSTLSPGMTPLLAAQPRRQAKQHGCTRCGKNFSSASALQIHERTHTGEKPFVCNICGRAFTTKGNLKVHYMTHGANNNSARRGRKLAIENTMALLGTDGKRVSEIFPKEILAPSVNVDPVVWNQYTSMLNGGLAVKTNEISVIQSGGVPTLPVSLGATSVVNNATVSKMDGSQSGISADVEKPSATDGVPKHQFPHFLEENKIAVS
# Notes: 8-mer, flanks averaged, mean of replicates
Sequence,E-score
CCACCGTC,-0.356
ACTGGGTG,-0.289
AGCGCCCA,-0.299
AAGGTTTG,0.039
GGGCTGAC,-0.268
CGATGTGA,0.0729
ACTCGCCA,-0.0891
CCAACGCG,-0.36

# Set 2 — target: JUND, bZIP domain (human); method: DHFR protein complementation; matrix: yeast; baseline: wild-type JUN-FOS pair; reading: higher = stronger binding
# Notes: single substitutions, most at no-binding floor
# Parent: JUN, bZIP domain (human); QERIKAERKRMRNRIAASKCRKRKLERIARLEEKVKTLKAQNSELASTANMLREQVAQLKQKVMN
Change,binding fitness [natural log]
L31M,-1.28
K36W,-1.29
L52Q,-1.42
Q41P,-1.49
L31V,-1.5
A46D,-1.36
L38S,-1.38
K34G,-1.27

# Single results of other studies
Molecule,target,assay,system,setting,scale,endpoint,result
"PhoQ, residues 284 288 289 292 302 303 SSTMSV","PhoP, residues 12 14 15 18 19 TTLRV (Escherichia coli, UniProt P23836)","Sort-seq, item: YFP reporter",E. coli,"PhoQ-PhoP variant library, with: 10 µM Mg2+","baseline: high Mg2+ state, higher = stronger signaling",fold induction,4.65
Cc1ccc(NC(=O)c2ccc(CN3CCN(C)CC3)cc2)cc1Nc1nccc(-c2cccnc2)n1,"MARK3 (Homo sapiens, UniProt P27448)","enzyme activity, inhibitor",,0.5 µM,baseline: control,remaining activity,94.1%

# Some of these lines once more (set 1):
Sequence,E-score
GGGCTGAC,-0.268
CGATGTGA,0.0729
